Published values collected from several papers.
Protocols differ between the studies behind these lines. Several values in a cell are separate wells, animals, samples, runs or records. Numbers after ± are the reported error.
SLC6A3: Sodium-dependent dopamine transporter (SLC6A3, Homo sapiens, UniProt Q01959)
GUK1: GUK1 (Homo sapiens, UniProt Q16774)
AKR1B1: Aldo-keto reductase family 1 member B1 (AKR1B1, Homo sapiens, UniProt P15121)
Kir3.1/Kir3.4: Kir3.1/Kir3.4 (Homo sapiens, UniProt P48544+P48549)
SLC6A6 Y138A: Sodium- and chloride-dependent taurine transporter (SLC6A6, Homo sapiens, UniProt P31641, Y138A)
CDC28: Cyclin-dependent kinase 1 (CDC28, Candida albicans, UniProt P43063)
pyrD: Dihydroorotate dehydrogenase (quinone) (pyrD, Acinetobacter baumannii, UniProt B7GZW7)
T1: RNA aptamer; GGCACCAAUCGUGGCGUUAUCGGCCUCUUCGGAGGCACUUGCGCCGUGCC
T2: riboswitch RNA yjdF aptamer domain (Bacillus subtilis); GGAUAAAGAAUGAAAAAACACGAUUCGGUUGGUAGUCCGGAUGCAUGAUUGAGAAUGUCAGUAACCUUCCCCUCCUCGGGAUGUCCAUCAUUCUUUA

CCOC(=O)[C@@]12C[C@@H]1[C@@H](n1cnc3c(NCCCCCc4ccccc4)nc(C#Cc4ccccc4)nc31)[C@H](O)[C@@H]2O
dopamine uptake (SLC6A3; inhibitor; HEK293; concentration not given, added: [3H]dopamine 20 nM): no effect

NS(=O)(=O)NCCNc1nonc1C(=NO)Nc1ccc(F)c(Br)c1
ΔTi (Indoleamine 2,3-dioxygenase 1 (IDO1, Homo sapiens, UniProt P14902); thermal stability, nanoDSF; 50 µM, 2% DMSO, 2 mM DTT, added: unlabelled protein): 8.1 °C

Nc1nc2c(ncn2[C@@H]2O[C@H](COP(=O)(O)O)[C@@H](O)[C@H]2O)c(=O)[nH]1
reaction velocity (GUK1; enzyme activity, NADH-coupled; 2000 µM, added: NaCl 150 mM): 0.0827 µM/s and 0.0909 µM/s and 0.093 µM/s

O=C(Nc1ccccc1OS(=O)(=O)c1ccc([N+](=O)[O-])cc1)c1ccc2ncccc2c1
fluorescence increase (P2X purinoceptor 4 (P2RX4, Homo sapiens, UniProt Q99571); calcium mobilization; MCF7 stably transfected; 100 µM, added: ATP 100 µM): 76.3 ± 0.57%

CC(C)C[C@H](NC(=O)C[C@H](O)[C@H](CC(C)C)NC(=O)[C@H](Cc1c[nH]cn1)NC(=O)CNC(=O)[C@@H](NC(=O)[C@H](C)NC(=O)[C@H](Cc1c[nH]c2ccccc12)NC(=O)[C@H](CCC(N)=O)NC(=O)[C@@H](Cc1ccccc1)NC(=O)COCCOCCNC(=O)CCC(C(=O)O)N1CCN(CC(=O)O)CCN(CC(=O)O)CCN(CC(=O)O)CC1)C(C)C)C(N)=O (stereo partly shown) [lutetium-177 labelled]
tissue uptake (BALB/c nu/nu mice, stomach; intravenous, 50 pmol, 1 h, added: PA 300 µg): 4 ± 2 %ID/g

O=C1S/C(=C\c2ccc(F)cc2)C(=O)N1Cc1nc2ccccc2s1
Hill slope (AKR1B1; enzyme activity, inhibitor): -0.452

CC1=NN(c2ccccn2)C(=O)C1=NNc1ccc(S(N)(=O)=O)cc1
inhibition (bovine α-glucosidase; enzyme activity, inhibitor, glucose oxidase; 10 µg/mL, added: maltose): 25.065 ± 0.00102%

O=C(COc1ccc(Cl)cc1Cl)Nc1cc(C2CC2)nn1CC(F)(F)F
Emax (Kir3.1/Kir3.4; thallium flux, activator; HEK293; baseline: standard compound): 68%

O=C(NO)c1ccc(CN2CCCCc3ccccc32)c(F)c1
inhibition (Mu-type opioid receptor (OPRM1, Homo sapiens, UniProt P35372); radioligand binding, PDSP radioligand binding; 10 µM): 4.75%

N#Cc1ccsc1NC(=O)COc1ccc(Cl)cc1Cl
activity (Kir3.1/Kir3.4; activator, thallium flux; HEK293; concentration not given): inactive

COc1cc(F)ccc1-c1ncnc(Nc2cccc(C[S@](C)(=N)=O)c2)n1
remaining activity (Rhodopsin kinase GRK7 (GRK7, Homo sapiens, UniProt Q8WTQ7); kinase activity; 10 µM, added: 10 µM ATP): 95%

CCNC(=O)/C=C/c1cccc(Br)c1
L-leucine uptake (Sodium-dependent neutral amino acid transporter B(0)AT1 (SLC6A19, Homo sapiens, UniProt Q695T7); inhibitor, L-[14C]leucine uptake; CHO-BC cells; 100 µM, sodium-free): 5.77 nmol/6 min/mg protein and 5.39 nmol/6 min/mg protein and 5.56 nmol/6 min/mg protein

CN(CCO)c1ccc(/C=C(\C#N)c2ccc(C#N)cc2)cc1
Kd (T1, RNA aptamer; fluorescence titration, Hill fit; apparent): 1.34 µM

O=S(=O)(O)C1CCNCC1
normalised MST signal (SLC6A6 Y138A; binding, microscale thermophoresis; 7.81 µM, room temperature, added: 50 nM labelled protein; higher = more binding): -0.0105

CCC(C)C(O)C(=O)O (stereo not shown)
log2 fold change (binding, MIDAS equilibrium dialysis LC-MS; A2AR-BRIL thermostabilized; concentration not given; baseline: no-protein control): -0.559

O=c1nc(SCc2cc(F)cc(C(F)(F)F)c2)nc(SCc2ccc3nc(Cl)ccc3c2)[nH]1
ATP hydrolysis rate (DNA topoisomerase 2-alpha (TOP2A, Homo sapiens, UniProt P11388); ATPase activity; 125 µM, added: ATP 0.5 mM): 0.332 µM/min and 2.38 µM/min

CC1=NN(c2ccc(Cl)cc2)C(=O)C1=NNc1ccc(S(N)(=O)=O)cc1
inhibition (bovine α-glucosidase; enzyme activity, inhibitor, glucose oxidase; 50 µg/mL, added: maltose): 35.9%

NCCCC[C@H](N)C(=O)Nc1ccc2ccccc2c1
kcat (rat aminopeptidase III; substrate; MW 110 kDa): 5.17 s⁻¹

c1coc(-c2n[nH]cc2-c2ccnc3ccccc23)c1
log2 fold change (CDC28; kinase binding, MIB/MS competition; Candida albicans lysate; 10 µM; baseline: DMSO, negative = stronger binding): -0.17

CC(=O)N[C@H](C(=O)N1C[C@H](O)C[C@H]1C(=O)NCc1ccc(-c2scnc2C)cc1)C(C)(C)SCCCCCCNC(=O)C[C@@H]1N=C(c2ccc(Cl)cc2)c2c(sc(C)c2C)-n2c(C)nnc21
cooperativity (BRD4/VHL, BD2; with elongins B/C (Homo sapiens, UniProt O60885+P40337, A384K/E383V/K378Q); ITC; 25 °C, added: BRD4 BD2; baseline: binary Kd over ternary Kd): 2

CCCCCCCCc1ccc([C@H]2CC[C@H]([N+](C)(C)CCC)CC2)cc1.[I-]
Ki/Km ratio (Sphingosine kinase 2 (SPHK2, Homo sapiens, UniProt Q9NRA0); inhibitor, radiometric flash-plate; cell lysate; added: sphingosine 5 µM): 4.2

Nc1ncnc2c1ncn2[C@@H]1O[C@H](COP(=O)(O)CP(=O)(O)OP(=O)(O)O)[C@@H](O)[C@H]1O
specific binding (P2X purinoceptor 1 (P2RX1, Homo sapiens, UniProt P51575); saturation binding; HEK293; 25 nM): 2070 CCPM and 5180 CCPM and 5010 CCPM and 4820 CCPM and 3210 CCPM

Nc1ncnc2c1ncn2[C@@H]1O[C@H](CO[P@](=O)(O)O[P@](=O)(O)O[P@@](=O)(O)S)[C@@H](O)[C@H]1O
ΔH (GUK1; binding, isothermal titration calorimetry; molar ratio 0.297, fitted curve): -1.79 kcal/mol

CCc1nn(CCCN2CCN(c3cccc(Cl)c3)CC2)c(=O)n1CCOc1ccccc1
Vmax (SLC6A3; [3H]dopamine uptake, inhibitor, uptake kinetics; 0.5 µM; baseline: control): decreased

CC1(C)CC[C@]2(C(=O)O)CC[C@]3(C)C(=CC[C@@H]4[C@@]5(C)C[C@@H](O)[C@H](OC(=O)/C=C/c6ccc(O)cc6)C(C)(C)[C@@H]5CC[C@]43C)[C@@H]2C1 (relative stereo)
photoaffinity labelling (Presenilin-1, N-terminal fragment (PSEN1, Homo sapiens, UniProt P49768); S2 subsite probe binding, competitor, measured: PS1 labelling; HeLa membranes): increased

CC1CCCN(C(=O)c2cc3ncccn3n2)C1 (stereo not shown)
log fold enrichment (Protein transport protein Sec31A (SEC31A, Homo sapiens, UniProt O94979); binding, affinity selection mass spectrometry; baseline: other proteins in batch): 0.00259

CCc1nc2nc(C)cc(Nc3ccc(C(F)(F)F)c(F)c3)n2n1
robust Z-score (pyrD; enzyme activity, inhibitor, colorimetric HTS, measured: DCIP reduction; 3 µM; direction not given): 16.5

C[C@]12C[C@H](O)[C@H]3[C@@H](CCC4=CC(=O)CC[C@@]43C)[C@@H]1CC[C@@H]2C(=O)CO
kon (Cytochrome P450 11B1, mitochondrial (CYP11B1, Homo sapiens, UniProt P15538); nanodiscs; 25 °C, fast phase): 240000 ± 30000 M⁻¹ s⁻¹

Nc1ncnc2c1ncn2[C@@H]1O[C@H](CSCC[C@H](N)C(=O)O)[C@@H](O)[C@H]1O
Km (dadD (Methanocaldococcus jannaschii, UniProt Q58936); substrate): 0.4 ± 0.1 mM

NC/C(=C\F)COc1cccc(Cn2c(=S)[nH]c(=O)c3[nH]cnc32)c1
inhibition (Voltage-dependent L-type calcium channel subunit alpha-1C (CACNA1C, Homo sapiens, UniProt Q13936); peak ion current, inhibitor, automated patch clamp; 30 µM, pulse 1): 16.9%

CCN1CCC[C@H]1CNC(=O)c1c(O)c(Cl)cc(Cl)c1OC
log2 fold change (Neuropeptide FF receptor 1 (NPFFR1, Homo sapiens, UniProt Q9GZQ6); β-arrestin recruitment, TANGO luminescence, measured: NPFF1; concentration not given; baseline: basal luminescence): 0.789

Cc1ccc(/C=C2\SC(=O)N(Cc3nc4ccccc4s3)C2=O)cc1
Hill slope (AKR1B1; enzyme activity, inhibitor): -0.562

Cc1cc2c(cc1N1C(=O)c3cccc4c(CCCO)ccc(c34)C1=O)n(C)c(=O)n2C (racemic)
inhibition (Bromodomain-containing protein 7 (BRD7, Homo sapiens, UniProt Q9NPI1); binding, BROMOscan binding; 100 nM): 68%

COc1ccc2c(c[n+](C)c3c4cc5c(cc4ccc23)OCO5)c1OC
Kd (T2, riboswitch RNA yjdF aptamer domain (Bacillus subtilis); fluorescence titration): 0.00043 µM

C=CC(=O)N1CCC(COCC(=O)N2CCN(c3nc(-c4cnc(N)nc4C(F)F)nc(N4CCOC[C@@H]4C)n3)CC2)CC1
remaining binding (Calcium/calmodulin-dependent protein kinase type 1B (PNCK, Homo sapiens, UniProt Q6P2M8); KINOMEscan; 1 µM; baseline: DMSO control): 97%

C=CC(=O)N1CCC[C@@H](n2nc(-c3ccc(Oc4ccccc4)cc3)c3c(N)ncnc32)C1
remaining activity (Insulin receptor (INSR, Homo sapiens, UniProt P06213); 10 µM): 145%

Cc1ccc(C(C)C)cc1O
Hill coefficient (uncharacterized protein (Solanum tuberosum, UniProt M0ZZL3); enzyme activity; inhibitory mode parameter): 1 ± 0.3

Nc1ncnc2c1ncn2[C@@H]1O[C@H](COP(=O)(O)OP(=O)(O)OP(=O)(O)O)[C@@H](O)[C@H]1O
normalized current (P2X purinoceptor 7 (P2rx7, Rattus norvegicus, UniProt Q64663, I214A/R125A); ion current, agonist, two-electrode voltage clamp; Xenopus laevis oocytes; 11 µM; baseline: highest concentration response): 0.0244 and 0.0526 and 0.037

O=C(Nc1cc(Cl)cc(Cl)c1)c1ccc2c(c1)C(=O)NC2=O
selectivity ratio (Amine oxidase [flavin-containing] B (MAOB, Homo sapiens, UniProt P27338); baseline: IC50 MAO-A over IC50 MAO-B): > 727

CCCCO
Km (ADH1 (Saccharomyces cerevisiae, UniProt P00330); enzyme activity, substrate; pH 6): ~100 mM

Cn1cc(-c2ccc(-c3cncc(Cl)c3N3CCC4(CCNC4=O)CC3)cc2)cn1
log2 fold change (COLO 205; gene expression, microarray, measured: HIST1H4I mRNA; concentration not given, 6 h; baseline: untreated cells): -2.64

CSc1nc2nc(C)cc(Nc3cc(F)c(C(F)(F)F)c(F)c3)n2n1
robust Z-score (pyrD; enzyme activity, inhibitor, colorimetric HTS, measured: DCIP reduction; 3 µM; direction not given): 24.2

COc1cc(F)cc2c(N3CCN4c5ccccc5OC[C@@H]4C3)c(C#N)nnc12 (single isomer, unassigned)
maximal response (Metabotropic glutamate receptor 7 (Grm7, Rattus norvegicus, UniProt P35400); positive allosteric modulator; cell-based; added: L-AP4 EC20; baseline: L-AP4 maximum): 59%

Cc1cc(NC2CCc3ccc(Br)cc3C2)n2nc(C(C)(F)F)nc2n1 (stereo not shown)
robust Z-score (pyrD; enzyme activity, inhibitor, colorimetric HTS, measured: DCIP reduction; 3 µM; direction not given): 17.6

N#Cc1ccn2c(-c3ccncc3)c(-c3ccc(F)cc3)nc2c1
log2 fold change (CDC28; kinase binding, competitor, MIB/MS competition, measured: CDC28; Candida albicans cell lysate; 100 nM; baseline: DMSO): -0.242

O=C(COc1ccc(C(F)(F)F)cc1C(F)(F)F)Nc1cc(C2CC2)nn1CC(F)(F)F
Emax (Kir3.1/Kir3.4; thallium flux, activator; HEK293; baseline: standard compound): 58%

O=C(O)CCC1=Nc2cccc3cccc(c23)N1
Kd (Ubiquitin carboxyl-terminal hydrolase 16, ZnF-UBD domain (USP16, Homo sapiens, UniProt Q9Y5T5)): > 1000 µM

O=C(O)C1CCCNC1 (stereo not shown)
normalised MST signal (SLC6A6 Y138A; binding, microscale thermophoresis; 31.3 µM, room temperature, added: 50 nM labelled protein; higher = more binding): 0.572

O=C(COP(=O)(O)O)[C@@H](O)[C@H](O)[C@H](O)COP(=O)(O)O
thermal stability ratio (Histone deacetylase 2 (HDAC2, Homo sapiens, UniProt Q92769); thermal proteome profiling; HepG2 cell lysate; concentration not given, 57 over 37 °C; baseline: compound over control): 0.471 and 0.455 and 0.591
